Experimental data gathered from unrelated publications.
Cell line: MDA-MB-435

`O=C(Nc1nnc2c1c(-c1ccc(Cl)cc1)nc1sc(=Cc3ccco3)c(=O)n12)c1ccccc1` (mixture of isomers) has a cell growth of 56.4% (SRB; 10 µM, NCI60 single-dose screen; baseline: untreated).
The TGI of `C1=[N+]2CCCC[N+]3=Cc4ccc5[n]4[Au-]23[n]2c1ccc2-c1nc2ccccc2nc1-5.F[P-](F)(F)(F)(F)F` is reported as 4 -log M (NCI60 five-dose screen).
With `Cc1ccc([N+](=O)[O-])cc1S(=O)(=O)N(C)/N=C/c1cnc2ccc(Br)cn12` the IC50 was greater than 10 µM (cell growth or viability).
With `COC1CC(=O)C2C(O)C=CC(O)C2C12Oc1cccc3cccc(c13)O2` (centres unmarked) the IC50 was 23.3 µM (cell growth or viability, resazurin; 72 h).
For `CCN(C(=O)c1cc(F)ccc1Oc1nncnc1N1CCC2(C1)CN([C@H](CCCN(C)CCOC)C(C)C)C2)C(C)C`, the GI50 was greater than 10 µM (cell growth or viability; 7 days).
`CN(C)CCN1CCN(c2ccc3nc(-c4ccc5nc(-c6ccc(C(F)(F)F)cc6)[nH]c5c4)[nH]c3c2)CC1` has a growth percent of 40.9% (SRB; 10 µM, 48 h).
`O=C1C=CC2(Oc3cccc4cccc(c34)O2)C2=C1C(O)CCC2O` (centres unmarked) has an IC50 of 3 µM (cell growth or viability, resazurin; 72 h).
`CCOc1cncc(-c2ccc(NC(=O)C3(c4ccnc(NS(=O)(=O)C5CC5)n4)CCOCC3)nc2)n1` gave an IC50 of 0.238 µM (cell growth or viability, ATP luminescence; 72 h).

For quick reference, copied from above:
`CN(C)CCN1CCN(c2ccc3nc(-c4ccc5nc(-c6ccc(C(F)(F)F)cc6)[nH]c5c4)[nH]c3c2)CC1` has a growth percent of 40.9% (SRB; 10 µM, 48 h).
